Measured values of several laboratories.
Parts stem from different laboratories: compare values within a part only. Positions count from the first letter of the parent shown.
Chain of UniProt Q9NWZ3 (whole entry, looked up): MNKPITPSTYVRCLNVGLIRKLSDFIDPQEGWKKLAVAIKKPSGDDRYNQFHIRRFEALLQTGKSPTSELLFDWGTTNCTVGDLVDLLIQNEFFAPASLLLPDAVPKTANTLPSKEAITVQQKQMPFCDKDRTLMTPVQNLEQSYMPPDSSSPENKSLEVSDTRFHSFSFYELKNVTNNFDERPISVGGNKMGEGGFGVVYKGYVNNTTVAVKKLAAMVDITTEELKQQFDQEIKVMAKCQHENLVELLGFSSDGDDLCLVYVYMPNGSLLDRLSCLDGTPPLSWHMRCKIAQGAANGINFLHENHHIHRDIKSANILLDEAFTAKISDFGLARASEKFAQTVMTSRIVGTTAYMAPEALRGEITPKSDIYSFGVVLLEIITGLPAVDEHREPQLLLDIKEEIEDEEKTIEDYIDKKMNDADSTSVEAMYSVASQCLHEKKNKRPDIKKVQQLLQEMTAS
Chain of UniProt P53779 (whole entry, looked up): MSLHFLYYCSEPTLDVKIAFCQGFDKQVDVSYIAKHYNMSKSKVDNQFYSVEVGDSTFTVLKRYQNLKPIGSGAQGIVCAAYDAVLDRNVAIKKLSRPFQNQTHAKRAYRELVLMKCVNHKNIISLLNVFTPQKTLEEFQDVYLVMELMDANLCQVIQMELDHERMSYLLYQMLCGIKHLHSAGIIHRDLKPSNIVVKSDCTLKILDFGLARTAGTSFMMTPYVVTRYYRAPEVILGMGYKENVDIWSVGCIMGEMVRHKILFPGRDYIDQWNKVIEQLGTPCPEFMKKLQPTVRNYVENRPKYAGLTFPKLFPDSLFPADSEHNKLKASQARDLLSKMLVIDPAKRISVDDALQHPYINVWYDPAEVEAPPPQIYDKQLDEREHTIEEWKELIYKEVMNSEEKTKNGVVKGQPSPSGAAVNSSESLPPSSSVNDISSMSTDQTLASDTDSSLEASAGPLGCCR
Chain of UniProt Q8TD19 (whole entry, looked up): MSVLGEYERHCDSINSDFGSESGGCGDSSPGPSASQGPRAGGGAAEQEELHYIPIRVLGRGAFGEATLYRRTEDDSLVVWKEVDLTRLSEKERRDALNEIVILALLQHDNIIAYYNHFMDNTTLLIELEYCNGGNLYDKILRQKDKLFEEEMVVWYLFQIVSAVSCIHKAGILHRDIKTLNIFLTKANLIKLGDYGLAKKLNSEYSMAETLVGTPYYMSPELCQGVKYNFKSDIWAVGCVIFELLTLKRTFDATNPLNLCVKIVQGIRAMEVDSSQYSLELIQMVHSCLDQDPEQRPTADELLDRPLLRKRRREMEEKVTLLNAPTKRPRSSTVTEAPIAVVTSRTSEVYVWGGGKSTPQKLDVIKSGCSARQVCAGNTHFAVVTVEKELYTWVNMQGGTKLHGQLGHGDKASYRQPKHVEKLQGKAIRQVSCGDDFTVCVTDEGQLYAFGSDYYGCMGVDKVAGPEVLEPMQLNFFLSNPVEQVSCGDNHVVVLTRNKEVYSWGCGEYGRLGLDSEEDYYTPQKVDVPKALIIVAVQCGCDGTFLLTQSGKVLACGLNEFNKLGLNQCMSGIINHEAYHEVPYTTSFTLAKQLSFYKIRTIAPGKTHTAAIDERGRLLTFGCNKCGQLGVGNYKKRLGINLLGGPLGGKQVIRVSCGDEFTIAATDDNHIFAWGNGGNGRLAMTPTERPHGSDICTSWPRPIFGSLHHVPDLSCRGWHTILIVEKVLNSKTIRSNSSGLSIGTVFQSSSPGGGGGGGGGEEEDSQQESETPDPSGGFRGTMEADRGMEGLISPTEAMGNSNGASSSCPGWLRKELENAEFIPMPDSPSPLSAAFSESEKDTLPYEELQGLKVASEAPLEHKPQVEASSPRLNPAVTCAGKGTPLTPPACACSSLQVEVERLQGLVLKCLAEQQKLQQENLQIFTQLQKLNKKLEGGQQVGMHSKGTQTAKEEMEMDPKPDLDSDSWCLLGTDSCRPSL
Chain of UniProt O60674 (whole entry, looked up): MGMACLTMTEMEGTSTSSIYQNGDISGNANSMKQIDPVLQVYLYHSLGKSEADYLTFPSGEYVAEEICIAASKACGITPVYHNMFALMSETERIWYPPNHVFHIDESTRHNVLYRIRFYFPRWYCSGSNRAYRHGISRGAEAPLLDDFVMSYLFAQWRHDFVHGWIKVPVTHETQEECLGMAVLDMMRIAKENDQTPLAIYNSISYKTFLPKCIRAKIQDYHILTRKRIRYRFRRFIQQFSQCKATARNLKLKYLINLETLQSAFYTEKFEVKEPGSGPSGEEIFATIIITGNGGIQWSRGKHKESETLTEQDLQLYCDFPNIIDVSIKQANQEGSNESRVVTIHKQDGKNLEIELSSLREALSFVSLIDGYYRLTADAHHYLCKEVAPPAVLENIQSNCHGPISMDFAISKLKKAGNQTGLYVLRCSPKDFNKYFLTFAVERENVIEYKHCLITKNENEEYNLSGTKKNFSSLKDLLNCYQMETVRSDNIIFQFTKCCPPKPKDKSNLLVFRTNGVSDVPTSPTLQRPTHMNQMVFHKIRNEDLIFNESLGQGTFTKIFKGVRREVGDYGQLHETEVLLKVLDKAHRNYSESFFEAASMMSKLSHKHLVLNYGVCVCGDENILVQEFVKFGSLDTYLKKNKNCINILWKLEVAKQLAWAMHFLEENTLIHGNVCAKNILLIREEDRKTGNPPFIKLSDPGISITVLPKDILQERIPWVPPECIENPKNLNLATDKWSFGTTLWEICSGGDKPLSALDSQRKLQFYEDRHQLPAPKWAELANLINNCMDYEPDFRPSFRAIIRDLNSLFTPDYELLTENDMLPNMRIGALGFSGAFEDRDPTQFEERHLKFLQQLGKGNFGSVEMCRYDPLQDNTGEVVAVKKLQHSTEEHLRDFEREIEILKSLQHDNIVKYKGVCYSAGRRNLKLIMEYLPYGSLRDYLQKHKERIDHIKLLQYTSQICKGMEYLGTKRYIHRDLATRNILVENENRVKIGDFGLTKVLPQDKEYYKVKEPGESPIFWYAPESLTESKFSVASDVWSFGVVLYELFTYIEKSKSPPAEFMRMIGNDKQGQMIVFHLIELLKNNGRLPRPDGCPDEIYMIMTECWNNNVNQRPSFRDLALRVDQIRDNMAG
Chain of UniProt O75582 (whole entry, looked up): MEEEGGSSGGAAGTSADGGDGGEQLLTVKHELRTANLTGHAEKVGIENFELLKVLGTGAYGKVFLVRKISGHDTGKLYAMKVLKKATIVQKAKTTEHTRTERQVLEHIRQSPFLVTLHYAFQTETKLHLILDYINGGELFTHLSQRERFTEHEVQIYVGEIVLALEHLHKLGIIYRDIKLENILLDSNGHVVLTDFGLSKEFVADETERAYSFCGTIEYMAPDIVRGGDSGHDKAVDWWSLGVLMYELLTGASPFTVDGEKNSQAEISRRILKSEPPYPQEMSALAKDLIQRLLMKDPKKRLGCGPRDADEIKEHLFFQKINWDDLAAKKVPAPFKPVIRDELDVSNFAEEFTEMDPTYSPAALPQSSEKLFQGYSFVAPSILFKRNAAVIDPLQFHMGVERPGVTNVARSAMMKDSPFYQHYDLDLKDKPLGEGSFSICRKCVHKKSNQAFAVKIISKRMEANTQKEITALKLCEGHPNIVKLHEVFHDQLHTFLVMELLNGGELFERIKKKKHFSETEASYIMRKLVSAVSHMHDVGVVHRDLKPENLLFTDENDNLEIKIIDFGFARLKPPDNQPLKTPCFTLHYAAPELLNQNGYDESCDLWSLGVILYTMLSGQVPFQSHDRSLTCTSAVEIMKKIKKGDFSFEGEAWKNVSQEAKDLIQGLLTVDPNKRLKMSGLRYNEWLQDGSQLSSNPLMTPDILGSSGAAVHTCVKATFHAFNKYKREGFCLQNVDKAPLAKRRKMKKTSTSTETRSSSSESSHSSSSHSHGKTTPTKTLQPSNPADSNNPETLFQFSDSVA
Chain of UniProt P06239 (whole entry, looked up): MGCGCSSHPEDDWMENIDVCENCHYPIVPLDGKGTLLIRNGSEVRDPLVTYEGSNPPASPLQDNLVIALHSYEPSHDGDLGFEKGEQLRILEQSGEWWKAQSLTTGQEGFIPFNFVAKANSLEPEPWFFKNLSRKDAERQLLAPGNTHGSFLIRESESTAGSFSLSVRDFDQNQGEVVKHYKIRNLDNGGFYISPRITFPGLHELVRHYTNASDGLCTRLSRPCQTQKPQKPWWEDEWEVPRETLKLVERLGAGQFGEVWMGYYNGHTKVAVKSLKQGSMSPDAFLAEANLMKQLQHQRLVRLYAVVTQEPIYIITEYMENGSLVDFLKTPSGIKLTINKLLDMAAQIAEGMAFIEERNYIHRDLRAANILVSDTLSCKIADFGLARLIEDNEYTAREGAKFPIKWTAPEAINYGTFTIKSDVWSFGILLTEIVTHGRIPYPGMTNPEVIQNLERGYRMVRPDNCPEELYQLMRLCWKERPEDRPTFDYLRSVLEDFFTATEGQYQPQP

Block 1
Target: NUAK family SNF1-like kinase 1 (NUAK1, Homo sapiens, UniProt O60285)
Chain of UniProt O60285 (whole entry, looked up): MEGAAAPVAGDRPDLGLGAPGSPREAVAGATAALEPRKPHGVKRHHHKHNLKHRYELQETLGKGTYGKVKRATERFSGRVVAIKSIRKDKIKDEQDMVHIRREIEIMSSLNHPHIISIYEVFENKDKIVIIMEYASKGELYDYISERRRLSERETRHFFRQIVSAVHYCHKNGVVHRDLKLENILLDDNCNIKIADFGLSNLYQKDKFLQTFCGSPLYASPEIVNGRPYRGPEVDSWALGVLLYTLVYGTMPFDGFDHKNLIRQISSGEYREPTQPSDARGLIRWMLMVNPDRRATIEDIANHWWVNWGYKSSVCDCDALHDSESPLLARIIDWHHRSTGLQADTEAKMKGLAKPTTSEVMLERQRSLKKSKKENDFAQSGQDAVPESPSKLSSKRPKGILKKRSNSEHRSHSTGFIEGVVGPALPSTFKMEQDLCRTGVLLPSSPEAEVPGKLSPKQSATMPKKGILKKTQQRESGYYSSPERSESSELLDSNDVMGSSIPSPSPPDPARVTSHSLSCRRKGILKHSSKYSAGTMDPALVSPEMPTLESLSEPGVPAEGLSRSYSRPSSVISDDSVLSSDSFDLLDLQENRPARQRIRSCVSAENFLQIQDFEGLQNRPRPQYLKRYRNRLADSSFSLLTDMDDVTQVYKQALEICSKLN
Effect on: enzyme activity
Action: inhibitor
Concentration: 0.5 µM
Relative to: control
Endpoint: remaining activity
CNC(=O)c1cc(Oc2ccc(NC(=O)Nc3ccc(Cl)c(C(F)(F)F)c3)cc2)ccn1: 103%
Nc1ccc2ncnc(NCCc3ccc(Oc4ccccc4)cc3)c2c1: 94.7%
N#CC(C#N)=C(N)/C(C#N)=C/c1ccc(O)cc1: 92.3%
O=c1c2ccccc2[nH]c(=S)n1CCN1CCC(=C(c2ccc(F)cc2)c2ccc(F)cc2)CC1: 102%
CO[C@H]1C[C@@H]2CC[C@@H](C)[C@@](O)(O2)C(=O)C(=O)N2CCCC[C@H]2C(=O)O[C@H]([C@H](C)C[C@@H]2CC[C@@H](O)[C@H](OC)C2)CC(=O)[C@H](C)/C=C(\C)[C@@H](O)[C@@H](OC)C(=O)[C@H](C)C[C@H](C)/C=C/C=C/C=C/1C: 101%
COc1ccc(CNC(=O)Nc2ncc([N+](=O)[O-])s2)cc1: 99.7%
Oc1ccc(-c2nc(-c3ccncc3)c(-c3ccc(F)cc3)[nH]2)cc1: 97.3%
O=S(=O)(c1cccc2cnccc12)N1CCCNCC1: 73.2%
Cn1c2ccccc2c2c3c(c4c5ccccc5n(CCC#N)c4c21)CNC3=O: 3.86%
CN(C)c1ccc(C=C2C(=O)Nc3ccccc32)cc1: 80.4%
O=C(Nc1cccc(Nc2cc(Nc3cccc(C(F)(F)F)c3)ncn2)c1)C1CC1: 102%
COc1ccc(OC)c2c(=S)c3ccccc3[nH]c12: 99.3%
COc1cc2ncnc(Nc3ccc(Oc4ccccc4)cc3)c2cc1OC: 105%
NCCNc1ncc(C(N)=O)c(Nc2cccc(C(F)(F)F)c2)n1: 22.6%
COc1cc2nccc(Oc3ccc(NC(=S)NC(=O)c4ccccc4C)cc3)c2cc1OC: 82.5%

Block 2
Target: JDP2, bZIP domain (human)
Method: DHFR protein complementation
Medium: yeast
Setting: single substitutions, most at no-binding floor
Relative to: wild-type JUN-FOS pair
Reading: higher = stronger binding
Endpoint: binding fitness
Parent: JUN, bZIP domain (human); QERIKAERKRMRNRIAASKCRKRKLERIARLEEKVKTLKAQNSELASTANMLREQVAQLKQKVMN; partner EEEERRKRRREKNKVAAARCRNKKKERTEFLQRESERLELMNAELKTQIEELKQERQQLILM
V35Q: 0.0466 natural log
A46D: 0.0708 natural log
R30D: 0.342 natural log
E32L: 0.198 natural log
R30C: 0.248 natural log
K36S: 0.314 natural log
L31R: 0.0143 natural log
V35K: -0.142 natural log

Block 3
Structure (SMILES): CN([C@@H]1CCc2c(CC(=O)O)c3ccccc3n2C1)S(=O)(=O)c1ccc(F)cc1
Effect on: cell-free assay
Method: competition with immobilised ligand
Concentration: 1 µM
Endpoint: remaining binding
G protein-coupled receptor kinase 3 (GRK3, Homo sapiens, UniProt P35626): 70%
Tyrosine-protein kinase Fyn (FYN, Homo sapiens, UniProt P06241): 77%
Tyrosine-protein kinase Lck (LCK, Homo sapiens, UniProt P06239): 100%
Cyclin-dependent kinase 3 (CDK3, Homo sapiens, UniProt Q00526): 100%
Misshapen-like kinase 1 (MINK1, Homo sapiens, UniProt Q8N4C8): 100%
Mitogen-activated protein kinase 10 (MAPK10, Homo sapiens, UniProt P53779): 100%
Fibroblast growth factor receptor 3 (FGFR3, Homo sapiens, UniProt P22607, G697C): 100%
Phosphatidylinositol 4,5-bisphosphate 3-kinase catalytic subunit gamma isoform (PIK3CG, Homo sapiens, UniProt P48736): 100%
Epidermal growth factor receptor (EGFR, Homo sapiens, UniProt P00533): 95%
Tyrosine-protein kinase JAK2, JH1 (JAK2, Homo sapiens, UniProt O60674): 100%
Serine/threonine-protein kinase Nek9 (NEK9, Homo sapiens, UniProt Q8TD19): 100%
Testis-specific serine/threonine-protein kinase 1 (TSSK1B, Homo sapiens, UniProt Q9BXA7): 100%
Serine/threonine-protein kinase PAK 6 (PAK6, Homo sapiens, UniProt Q9NQU5): 100%
Interleukin-1 receptor-associated kinase 4 (IRAK4, Homo sapiens, UniProt Q9NWZ3): 93%
Tyrosine-protein kinase ITK/TSK (ITK, Homo sapiens, UniProt Q08881): 96%
Ribosomal protein S6 kinase alpha-5, N-terminal kinase domain (RPS6KA5, Homo sapiens, UniProt O75582): 95%
Mitogen-activated protein kinase 9 (MAPK9, Homo sapiens, UniProt P45984): 98%

Block 4
Substitution: K58M
Target: ABI1, truncated, D143A, DHFR fusion (Arabidopsis thaliana)
Method: DHFR PCA, deep sequencing
Medium: yeast
Setting: methotrexate growth selection, single substitutions
Relative to: wild-type fitted maximum
Reading: higher = stronger binding
Endpoint: relative binding score
Parent: PYL1, truncated, DHFR fusion (Arabidopsis thaliana); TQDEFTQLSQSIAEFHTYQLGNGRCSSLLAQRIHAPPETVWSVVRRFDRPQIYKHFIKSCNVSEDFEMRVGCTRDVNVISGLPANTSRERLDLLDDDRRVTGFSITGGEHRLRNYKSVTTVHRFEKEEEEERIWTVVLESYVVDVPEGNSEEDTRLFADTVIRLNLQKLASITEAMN; partner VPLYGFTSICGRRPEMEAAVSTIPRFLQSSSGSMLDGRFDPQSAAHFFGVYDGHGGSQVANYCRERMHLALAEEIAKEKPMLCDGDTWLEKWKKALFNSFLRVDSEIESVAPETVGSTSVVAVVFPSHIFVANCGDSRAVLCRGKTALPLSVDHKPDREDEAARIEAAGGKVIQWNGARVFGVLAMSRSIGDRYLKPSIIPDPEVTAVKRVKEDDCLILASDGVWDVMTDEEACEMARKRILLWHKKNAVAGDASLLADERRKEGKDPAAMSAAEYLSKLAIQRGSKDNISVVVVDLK
added: (+)-ABA 58 µM: 66.7%
added: (+)-ABA 0 µM: -6.92%
added: (+)-ABA 0.0091 µM: 4.12%
added: (+)-ABA 0.11 µM: -5.67%
added: (+)-ABA 0.39 µM: 2.86%
added: (+)-ABA 17 µM: 48.7%
